Measured values pooled from the literature.
Compare with care: the assays were run in different laboratories. “And” joins repeats or separate records; there may be more than shown. ± gives the spread as reported.
B1: human thioredoxin; sequence looked up; chain VKQIESKTAFQEALDAAGDKLVVVDFSATWCGPCKMIKPFFHSLSEKYSNVIFLEVDVDDCQDVASECEVKCMPTFQFFKKGQKVGEFSGANKEKLEATINELV
B2: recombinant human GDNF; sequence looked up; chain SPDKQMAVLPRRERNRQAAAANPENSRGKGRRGQRGKNRGCVLTAIHLNVTDLGLGYETKEELIFRYCSGSCDAAETTYDKILKNLSRNRRLVSDKVGQACCRPIAFDDDLSFLDDNLVYHILRKHSAKRCGCI
B3: interferon gamma; sequence looked up; chain QDPYVKEAENLKKYFNAGHSDVADNGTLFLGILKNWKEESDRKIMQSQIVSFYFKLFKNFKDDQSIQKSVETIKEDMNVKFFNSNKKKRDDFEKLTNYSVTDLNVQRKAIHELIQVMAELSPAAKTGKRKRSQMLFRG
B4: cystatin A (human); sequence looked up; chain MIPGGLSEAKPATPEIQEIVDKVKPQLEEKTNETYGKLEAVQYKTQVVAGTNYYIKVRAGDNKYMHLKVFKSLPGQNEDLVLTGYQVDKNKDDELTGF

| Substance | target or system | assay | test system | setting | how to read | quantity | result |
| --- | --- | --- | --- | --- | --- | --- | --- |
| B1 (human thioredoxin) | CYB5R4 knockout human cells | PP4 interaction, 3xFLAG-PP4C IP-MS |  | concentration not given | reference: CYB5R4 KO over parental | log2 fold change | 1.76 |
| maraviroc |  | Western blot, measured: GSK-3β phospho-Ser9 | mice, NSG hu-PBL, HIV-infected, somatosensory cortex | i.p., 120 mg/kg twice daily, 3 weeks post infection, normalised to total GSK-3β | reference: HIV-infected untreated mice, increase | protein level | 4.68 fold |
| heparin sodium |  |  | human | intravenous infusion, 8 IU/kg/h, day 1 to 6 | reference: baseline | Emax of PT ratio | 1.03 |
| semaglutide |  |  | Wistar rat, male, diet-induced obese | subcutaneous, dose not given, day 44 | reference: vehicle | body weight reduction | -14.7% |
| difelikefalin |  |  | Japanese haemodialysis patients with pruritus | intravenous, 1.0 µg/kg, 8 weeks |  | PGIC much improved | 38.3% |
| B2 (recombinant human GDNF) |  | stereology, optical fractionator, measured: tyrosine hydroxylase | rat, 6-OHDA lesion model, substantia nigra pars compacta, lesioned side | 3 µg/24 h |  | TH-immunoreactive cell number | 130 ± 23.9 |
| cotadutide |  | metabolomics, measured: hepatic glycine | ob/ob mice on AMLN diet, NASH model, liver | dose not given |  | metabolite level | 1.05 ± 0.06 scaled intensity |
| B3 (interferon gamma) |  | proteinuria inducer | FVB mice | dose not given, 0 to 72 h |  | urine albumin/creatinine ratio AUC | 481 and 293 and 738 and 348 and 625 and 533 |
| B4 (cystatin A) | PP6C (human) | co-immunoprecipitation, IP-MS | CYB5R4 knockout cells | concentration not given | reference: CYB5R4 knockout over parental | log2 fold change | -0.00399 |
| liraglutide |  |  | Wistar rat, female, diet-induced obese, liver tissue | subcutaneous, dose not given, after 4 weeks treatment |  | liver triglycerides | 17 ± 1.3 mg/dL |
